Measured values gathered from unrelated publications.
Each numbered part is a random draw from the data of one study; scales do not carry over between parts. Changes are numbered by the printed parent chain.

Sample 1
Target: Interferon regulatory factor 3, full length, phosphomimetic (IRF3, Homo sapiens, UniProt Q14653, residues 1-427, S386D/S396D/S398D/S402D/T404D/S405D)
UniProt Q14653, sequence (whole entry, unmodified, looked up): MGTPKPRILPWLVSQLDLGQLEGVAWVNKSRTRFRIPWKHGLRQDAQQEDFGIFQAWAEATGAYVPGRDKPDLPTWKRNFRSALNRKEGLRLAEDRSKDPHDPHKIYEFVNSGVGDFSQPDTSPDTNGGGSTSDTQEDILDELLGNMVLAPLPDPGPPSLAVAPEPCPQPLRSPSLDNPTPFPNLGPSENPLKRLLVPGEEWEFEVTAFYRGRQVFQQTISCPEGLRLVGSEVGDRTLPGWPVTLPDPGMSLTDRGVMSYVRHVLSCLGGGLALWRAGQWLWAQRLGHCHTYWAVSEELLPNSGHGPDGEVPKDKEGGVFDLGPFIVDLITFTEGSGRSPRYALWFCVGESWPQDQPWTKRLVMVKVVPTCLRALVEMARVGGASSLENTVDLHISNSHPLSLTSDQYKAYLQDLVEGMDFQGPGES
Method: protein-binding microarray
Molecule type: double-stranded DNA, one strand shown
Sample: in vitro
Tested at: 2540 nM top
Notes: 60-bp whole probe
With: salmon DNA 0.4 mg/ml
Reference: random background probes
Direction: higher = stronger binding
Constant ends, left off below: GCCTAGCAC … GTCTTGATTCGCTTGACGCTGCTG
Oligonucleotide | fitted relative affinity
GCGATCCTCTCACCTCAGCCTGTGCTA | 0.407 z-score
GACGGTTTCTGTTTCGGGACGTGCTAG | 7.57 z-score
TGAGTAATTACATAATTACGGTGCTAG | 0.0633 z-score
GACGGACTGCTACTGCAGACGTGCTAG | -0.677 z-score
GACGAACTGAGGCTGGAGACGTGCTAG | -0.577 z-score
TCTCTGTTCTTTTCAGTCCCGTGCTAG | 1.94 z-score
TTAGATCTCAGTTTCAATTAGTGCTAG | 1.71 z-score
AGTTTATTTATTTTTACATTGTGCTAG | 1.14 z-score
TCATTTCCATTTTCTAAAACTGTGCTA | 5.37 z-score
GACGATATCGGGTATCCAGACGTGCTA | 0.697 z-score
GACTGACTGGGGACTGGGGACGTGCTA | -0.848 z-score
TTGGGTATCCTTATCCTTTAGTGCTAG | 3.98 z-score
GACGAAATGGGGTTTCGAGACGTGCTA | 0.72 z-score
GACGGTTTCGGTTCCTGGACGTGCTAG | 9.1 z-score
TCATGTATATACTATATGACTGTGCTA | 0.146 z-score
GAAGGTTTCGGTATCGGGACGTGCTAG | 8.71 z-score
GACGATTTCGGGTTTCGCGACGTGCTA | 2.5 z-score
GACGGTCTCCTTCTCCTGAAGTGCTAG | 4.37 z-score
GGCTGTTTGGCCCTGAACCTGTGCTAG | -0.48 z-score

Sample 2
Target: CCNE1, cyclin fold, Cln2 fusion (human)
Method: yeast growth competition, sequencing
Sample: yeast
Notes: weak parent motif
Reference: not given
Direction: higher = stronger binding
Starting sequence: MICAL3 docking peptide (human); LQLRRQLSFSEDS
Substitution | normalised enrichment score
LQLRRELSFSEDS [Q6E] | 0.393
LQLRRQLSISEDS [F9I] | 0.0186
LQLRRQLSFFEDS [S10F] | 0.365
LQIRRQLSFSEDS [L3I] | 2.52
LQLRRQLSFSRDS [E11R] | 0.609
LQLRRQLSFSEHS [D12H] | 0.667
LTLRRQLSFSEDS [Q2T] | 1.46
LQLRRQQSFSEDS [L7Q] | -0.00137
LQLRRQLSFSSDS [E11S] | 1.17
LQLRRQLSASEDS [F9A] | 0.0619
LQLRRQLGFSEDS [S8G] | 0.166
LQLRRQFSFSEDS [L7F] | -0.185
LQLRRSLSFSEDS [Q6S] | 0.465
LQLRRCLSFSEDS [Q6C] | 1.04
LQLRRQLTFSEDS [S8T] | 1.1
LSLRRQLSFSEDS [Q2S] | 1.39
LHLRRQLSFSEDS [Q2H] | 1.16
LQLERQLSFSEDS [R4E] | -0.287
LQLRFQLSFSEDS [R5F] | 0.325
LQLRRQGSFSEDS [L7G] | 0.103
LQLRRQLSFSEIS [D12I] | 1.61
LQLRRQLSFWEDS [S10W] | 0.36
LVLRRQLSFSEDS [Q2V] | 1.19
LQLRRQLNFSEDS [S8N] | 0.531
LQLRRQLSFSYDS [E11Y] | 0.714

Sample 3
Target: Histone acetyltransferase KAT6A, both winged helices, GST fusion (KAT6A, Homo sapiens, UniProt Q92794, residues 1-181)
Method: protein binding microarray
Molecule type: double-stranded DNA, one strand shown
Sample: in vitro
Tested at: not given
Notes: 8-mer, flanks averaged, mean of 2 arrays, mostly near background
Reference: not given
Direction: higher = stronger binding
Residues (chain): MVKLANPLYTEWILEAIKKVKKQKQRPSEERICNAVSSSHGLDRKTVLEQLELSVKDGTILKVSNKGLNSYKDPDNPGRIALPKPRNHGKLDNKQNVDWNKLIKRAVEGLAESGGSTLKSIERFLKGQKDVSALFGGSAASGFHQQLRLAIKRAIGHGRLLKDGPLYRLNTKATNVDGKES
Oligonucleotide | E-score
TATGAATA | -0.0396
CCGAATCA | -0.0376
AATTCAGA | -0.0757
GAGAAGTA | -0.0934
AGGAGGTG | -0.187
AAAGGTTC | -0.134
AAGTTCTG | -0.0276
AATCTTGC | -0.0888
ATGACCGC | 0.203
CTCCGCCA | 0.00498
AGGATCGC | 0.0468
CATGACAC | -0.00827
CTATACGA | 0.00383
GTGAAACA | 0.0536
CTAAAGAA | -0.0586
ACTACTGA | -0.176
TAGCGAAA | 0.0507
CTTAGCAC | 0.0323

Sample 4
Target: RNA binding protein fox-1 homolog 2, RRM domain, GST-SBP tag (RBFOX2, Homo sapiens, UniProt O43251-10, residues 100-194)
Method: RNA Bind-n-Seq
Molecule type: RNA
Sample: in vitro
Tested at: 365 nM
Notes: natural RNA segment, single round, ends assumed
Reference: no-protein control
Direction: higher = stronger binding
Constant ends, left off below: GGGAGUUCUACAGUCCGACGAUC … UGGAAUUCUCGGGUGCCAA
Target sequence (chain): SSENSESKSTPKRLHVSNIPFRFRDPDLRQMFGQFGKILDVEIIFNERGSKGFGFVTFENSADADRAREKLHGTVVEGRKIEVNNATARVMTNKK
Oligonucleotide | RBNS enrichment (R)
GGUGCCCAGCCUGGAGAAGGUUCUGGAGUUCAAAGCCCACGAAGGGGAGAUUGAAGACCUGGCUUUAGGGCCUGAUGGCAAGUUGGUAACCGUGGGCCGGGACCUUAAGG | 0.793
CACGGAGCUGCACAGCGUGGGGAACUCAUCCAUCACUUUCAAAAUUAGAGUCAUUUGAUCCAAGUUGGAGUCAGACACAGUAUUUGAGCUGCACGGCUUCUGGGUUCUCC | 0.592
GAAAACCUGAUUUUCAUCUCGUACUACCAAGCUUUACAACAUUGAAAGUGGCCUAGUAACUCUGAGUAUUUUAAAGAAUGCUUUAUCAUUUUUUAAAGAUGUCAAGAAAC | 0.304
ACUCACACACACUUGGUCAGAGAUGCUGUGCUUCUUGGAAGCAAGGACUCAAAGGCAAGGUGCACGCAGAGGACGUUUGAGUCUGGGAUGAAGCAUGUACGUAUUAUUUA | 17.4
AAAAUAAUCAGUAUGGUUUAUAUGUUGAAUUUGACAUUUGUGUGUAAUUUCAUGGUGGCCUAGUGUUGUGGUGCUUCUGGUAAUGGUAAUAGAAGCUCAACUAUUUUUUU | 1.05
UCAUCUAGGUUCUGAAUUACAGAAACCAACCAACCAAAAUUCUACCUUCAUUCUACAUAGACAUCAUUGGUUUUGGAGUUUAAAAAAAAAAGUCACCUUUUUGCUGAUGA | 0.379
CAGAGUUGAGCCAGCCCUCGCUGCCUUGGGUGCUUGCUUACCACCAGUCAAGGUUGCUCUGAACUUUCCCAUAACCAUUAUCCCCCAAGACCACCAGGCUCUGAGUGACC | 0.35
CACAUGUAUAAAGAUGUUCACAGAGAAAGAUGCUCUGUAGAGAAUUUGCUACCGAAGUUGGCUCAAGAAUUUGUUUUUAGUGUUAUUUACCAAGAUUAGGACGUCAGUGG | 0.463

Repeated from above (sample 3):
Oligonucleotide | E-score
CTAAAGAA | -0.0586
AATCTTGC | -0.0888
CTATACGA | 0.00383
GTGAAACA | 0.0536
AAGTTCTG | -0.0276
AATTCAGA | -0.0757
ACTACTGA | -0.176
CCGAATCA | -0.0376
TATGAATA | -0.0396
